# Measured values from different studies.
# Each line is one published result; not all experiments were run side by side.
# EGFR del752-759: Epidermal growth factor receptor (EGFR, Homo sapiens, UniProt P00533, del752-759)
# EGFR G719S: Epidermal growth factor receptor (EGFR, Homo sapiens, UniProt P00533, G719S)
# EGFR del746-750: Epidermal growth factor receptor (EGFR, Homo sapiens, UniProt P00533, del746-750)
SMILES,target,assay,conditions,scale,remaining binding
CNC1C[S+]2CC[S+]3CC[S+](C1)[Ru-4]321([N]=C=S)[n]2c3ccc(OC)cc3c3c4c(c5cc(F)c[n+]1c5c32)C(=O)NC4=O (centres unmarked),"EGFR (Homo sapiens, UniProt P00533, T790M)",KinomeScan,0.1 µM,baseline: untreated,100%
CNC(=O)C1CCN(c2cc(C)c(F)cc2NC(=O)c2ccc(-c3cc(O)ccc3C)c(C)c2)CC1,"EGFR (Homo sapiens, UniProt P00533, A750P/del747-749)","binding, competition with immobilised ligand",1 µM,,18%
Cc1ccc(-c2c(/C=C(\C#N)C(=O)NC(C)C)n(CCCO)c3ncnc(N)c23)cc1,EGFR del752-759,"cell-free assay, competition with immobilised ligand",1 µM,,100%
CCN1CCN(Cc2ccc(NC(=O)c3ccc(C)c(NC(=O)c4cncc(-c5cccs5)c4)c3)cc2C(F)(F)F)CC1,EGFR del752-759,"binding, competition with immobilised ligand",1 µM,,0%
C=CC(=O)N1CCCC(n2c(=O)c3ncccc3n(Cc3ccc(Oc4ccccc4)cc3)c2=O)C1 (centres unmarked),EGFR G719S,"cell-free assay, competition with immobilised ligand",1 µM,,81%
CN1CCN(Cc2ccc(NC(=O)c3cccc(C#Cc4cnc(N)c5ncccc45)c3)cc2C(F)(F)F)CC1,"EGFR (Homo sapiens, UniProt P00533, L858R)","cell-free assay, competition with immobilised ligand",0.5 µM,,18%
CCN1CCN(Cc2ccc(C(=O)Nc3ccc(C)c(NCc4cnc5[nH]ccc5c4OC)c3)cc2C(F)(F)F)CC1,EGFR del752-759,"binding, competition with immobilised ligand",1 µM,,2%
CC(C)=CC1OC(C)(C)C2C=C3C(=O)C(Cl)=CC(O)C3C3C(O)C4OC4C(=O)C132 (centres unmarked),EGFR del752-759,"cell-free assay, competition with immobilised ligand",10 µM,,74%
Nc1ncc2c(n1)-c1c([nH]c3ccc(C4=CCOCC4)cc13)CCC2,EGFR G719S,"binding, competition with immobilised ligand",1 µM,,85%
COc1c(Cl)cccc1Nc1c(-c2ccncc2C#C[C@@]2(C)CCCN2C(=O)/C=C/CN(C)C)[nH]c2c1C(=O)NCC2,EGFR del746-750,"cell-free assay, competition with immobilised ligand",3 µM,,0.15%
C=CC(=O)N1CCc2ccc(-n3c(=O)ccc4cnc5ccc(-c6cnn(C)c6)cc5c43)cc21,EGFR del746-750,KINOMEscan,1 µM,baseline: DMSO control,100%
